Results gathered from unrelated publications.
Each line is one published result; not all experiments were run side by side. ± gives the spread as reported.
Cell line: A549

With `Cc1cc(C)c(C2CN(C)C3(C(=O)Nc4ccccc43)C2C(=O)c2cccc(Cl)c2)c(C)c1` (stereo not drawn) the IC50 was > 100 µM (cell growth or viability, MTT; 24 h).
`O=[N+]([O-])c1ccc(/C=C/c2nc3ccc([N+](=O)[O-])cc3nc2/C=C/c2ccc([N+](=O)[O-])cc2)cc1` has an IC50 of > 100 µM (cell growth or viability, MTT; 72 h).
`Cc1cc(C)c(C2CN(C)C3(C(=O)Nc4ccccc43)C2C(=O)c2ccc(Br)cc2)c(C)c1` (stereo not drawn) gave an IC50 of 14.5 µM (cell growth or viability, MTT; 48 h).
For `Nc1nc(-c2cccc(NC(=O)c3cc4cc(F)ccc4[nH]3)c2)c(C(=O)c2ccccc2)[nH]1`, the IC50 was 29.1 µM (cell growth or viability, resazurin; 72 h).
With `CN1CCC2(CC1)C/C(=N\N=C\c1ccc(O)cc1)c1ccccc1O2` the IC50 was 23.2 µM (cell growth or viability, MTT; 48 h).
`O=C(Cn1cc(COc2ncnc3[nH]cnc23)nn1)Nc1ccc(F)c(Cl)c1` has an IC50 of 4.02 µM (cell growth or viability, MTT).
`Brc1ccc2nc(/C=C/c3ccc4ccccc4c3)c(/C=C/c3ccc4ccccc4c3)nc2c1` has an IC50 of > 100 µM (cell growth or viability, MTT; 72 h).
For `Cc1cccc(C(=O)C2C(c3c(C)cc(C)cc3C)CN(C)C23C(=O)Nc2ccccc23)c1` (stereo not drawn), the IC50 was 3.5 µM (cell growth or viability, MTT; 48 h).
For `CCOC(=O)c1[nH]c(N)nc1-c1cccc(NC(=O)c2cc3cc(F)ccc3[nH]2)c1`, the IC50 was 18.6 µM (cell growth or viability, resazurin; 72 h).
The IC50 of `Cc1cc(C)c(C2C3CCCN3C3(C(=O)Nc4ccccc43)C2C(=O)c2cccc(Cl)c2)c(C)c1` (stereo not drawn) is reported as 16.9 µM (cell growth or viability, MTT; 24 h).
The IC50 of `COc1ccccc1/C=C/c1nc2ccc(Br)cc2nc1/C=C/c1ccccc1OC` is reported as 35.2 µM (cell growth or viability, MTT; 72 h).
`C/C(=N/NC(=O)c1cn(-c2ccccc2)nc1-c1ccc(F)cc1)c1c(O)cc(C)oc1=O` gave an IC50 of 68.5 µM (cell growth or viability, MTT; 48 h).
The IC50 of `O=C(Cn1cc(COc2ncnc3[nH]cnc23)nn1)NCc1ccc(O)cc1` is reported as > 100 µM (cell growth or viability, MTT).
`Cc1cc(C)c(C2CN(C)C3(C(=O)Nc4ccccc43)C2C(=O)c2ccccc2)c(C)c1` (stereo not drawn) gave an IC50 of 3.81 µM (cell growth or viability, MTT; 48 h).
For `CC(C=NN=C(N)[S-])=NN=C(N)[S-].NCc1ccccc1.NCc1ccccc1.O=[N+]([O-])[O-].[Co+3]`, the IC50 was ~7.1 µM (cell viability, MTT; 24 h then 48 h recovery, normoxia).
With `Brc1ccc(/C=C/c2nc3ccc(Br)cc3nc2/C=C/c2ccc(Br)cc2)cc1` the IC50 was > 100 µM (cell growth or viability, MTT; 72 h).
With `CCn1[c](=[Au-2]([Cl])([Cl])[Cl])n(CC)c2ccccc21` the IC50 was 11.6 µM (cell growth or viability, crystal violet; 72 h).
`CC(C=NNC(N)=S)=NNC(N)=S` has an IC50 of 0.06 ± 0.03 µM (cell viability, MTT; 24 h then 48 h recovery, normoxia).
`Cc1ccc(C(=O)C2C(c3c(C)cc(C)cc3C)CN(C)C23C(=O)Nc2ccccc23)cc1` (stereo not drawn) gave an IC50 of 6.93 µM (cell growth or viability, MTT; 24 h).
The IC50 of `CC(=NN=C(N)[S-])C(C)=NN=C(N)[S-].O=[N+]([O-])[O-].[Co+3].c1c[nH]cn1.c1c[nH]cn1` is reported as > 500 µM (cell viability, MTT; 24 h hypoxic, 48 h normoxic, hypoxic treatment).
`CC1COc2c(N3CCN(C)CC3)c(F)cc3c(=O)c(C(=O)[O-])cn1c23.Cc1ccc(C(C)C)cc1.[Cl-].[Ru+2]` (stereo not drawn) has an IC50 of > 320 µM (cell growth or viability, MTT; 96 h).
`Cn1nnc2c(C(N)=O)ncn2c1=O` has an IC50 of 79.4 µM (cell proliferation, MTS; 72 h, with: 10 µM HNL).
`O=[N+]([O-])c1ccc(-n2nc(-c3cccs3)sc2=NN=C2CCCC2)cc1` gave an IC50 of 68.5 µM (cell growth or viability).
For `O=c1[nH]cc(F)c(=O)[nH]1`, the IC50 was 4.89 µM (cell growth or viability, MTT; 72 h).

Repeated from above:
For `CCOC(=O)c1[nH]c(N)nc1-c1cccc(NC(=O)c2cc3cc(F)ccc3[nH]2)c1`, the IC50 was 18.6 µM (cell growth or viability, resazurin; 72 h).
With `Brc1ccc(/C=C/c2nc3ccc(Br)cc3nc2/C=C/c2ccc(Br)cc2)cc1` the IC50 was > 100 µM (cell growth or viability, MTT; 72 h).
The IC50 of `COc1ccccc1/C=C/c1nc2ccc(Br)cc2nc1/C=C/c1ccccc1OC` is reported as 35.2 µM (cell growth or viability, MTT; 72 h).
`O=[N+]([O-])c1ccc(/C=C/c2nc3ccc([N+](=O)[O-])cc3nc2/C=C/c2ccc([N+](=O)[O-])cc2)cc1` has an IC50 of > 100 µM (cell growth or viability, MTT; 72 h).
